Experimental data from different studies.
Lines come from different studies, so protocols differ.
Matrix: plasma

| Compound | host | route | dose | setting | Tmax |
| --- | --- | --- | --- | --- | --- |
| CCC(CC)n1c(Cc2ccco2)nc2cc(C(=O)N[C@@H](CC(=O)O)c3ccccc3)ccc21 | male Sprague-Dawley rat | intraperitoneal | 10 mg/kg | – | 30 min |
| COC1C(c2ccc(Cl)c(Cc3ccc(OC4CCOC4)cc3)c2)OC(CO)C(O)C1O (centres unmarked) | Sprague-Dawley rat | intravenous | 2.5 mg/kg | – | 4.8 min |
| Cc1cc2c(cc1O)C=C1C=CC(=O)C(C)(C)[C@H]1CC2 | male Sprague-Dawley rat | oral | 20 mg/kg | – | 4.8 min |
| CC(=Nc1ccc(N)cc1)N(C)C | male Sprague-Dawley rat | oral | 200 mg/kg | – | 81.6 min |
| CNC(=O)C1CCCN(C(=O)C2CC3CCC2N3C(=O)[C@@H]2C[C@@H](O)CN2C(=O)NCc2cccc(Cl)c2F)C1 (mixture of isomers) | rat | oral | 8 mg/kg | – | 49.8 min |
| O=c1c(-c2ccc(Cl)c(CN3CCOCC3)c2)coc2cc(O)ccc12 | male Sprague-Dawley rat | oral | 10 mg/kg | – | 15 min |
| CN1CCC[C@@H]1C(=O)N[C@@H](Cc1ccc(-c2ccccc2)cc1)B(O)O | male Sprague-Dawley rat | intravenous | 1 mg/kg | – | 4.8 min |
| O=C(C1CCN(c2nnnn2-c2ccccc2)CC1)N1CCCc2ccccc21 | male Sprague-Dawley rat | oral | 5 mg/kg | – | 30 min |
| C/C(N)=N/C(=N\S(=O)(=O)c1ccc(C(F)(F)F)cc1)N1C[C@H](c2ccccc2)C(c2ccc(Cl)cc2)=N1 | male Sprague-Dawley rat | oral | 30 mg/kg | – | 240 min |
| C=C(NC(=O)c1csc(-c2nc3c(cc2O)-c2nc(cs2)C(=O)NC(C(C)O)C(=O)NC(=C(C)OC)c2nc(cs2)C(=O)NC2c4nc(cs4)C(=O)NC(COC(=O)c4c5c6c(cccc6n4O)COC(=O)C(OC4CC(C)(O)C(N(C)C)C(C)O4)C2OC5)c2nc-3cs2)n1)C(N)=O (centres unmarked) | Sprague-Dawley rat | intravenous | 6 mg/kg | single dose, infusion | 5.4 min |
| Cc1cccc(C)c1CNc1cc(C(=O)N2CCC2)cn2c(C)c(C)nc12 | male Sprague-Dawley rat | oral | 10 mg/kg | – | 15 min |
| CCC(CC)n1c(Cc2cccs2)nc2cc(C(=O)N[C@@H](CC(=O)O)c3ccccc3)ccc21 | male Sprague-Dawley rat | intravenous | 1 mg/kg | – | 4.8 min |
| COCCN(C)CC(=O)NC(Cc1ccc(-c2ccccc2)cc1)B(O)O (centres unmarked) | rat | oral | 1 mg/kg | – | 18 min |
| OC1(C(F)(F)F)CCN(c2nc(Nc3ccnc(C(F)(F)F)c3)nc(-c3cccc(C(F)(F)F)n3)n2)C1 (centres unmarked) | Sprague-Dawley rat | oral | 10 mg/kg | – | 340 min |

A few entries again:
| Compound | host | route | dose | setting | Tmax |
| --- | --- | --- | --- | --- | --- |
| Cc1cccc(C)c1CNc1cc(C(=O)N2CCC2)cn2c(C)c(C)nc12 | male Sprague-Dawley rat | oral | 10 mg/kg | – | 15 min |
